Experimental data collected from several papers.
Compare with care: the assays were run in different laboratories. Values joined by “and” are separate records of one study, mostly repeats; a detail may differ. Numbers after ± are the reported error. No end group written: not given here.
B1: O-methyl-Tyr, C-amide; chain Y(Me)ECG-NH2 (N-terminus assumed; SMILES COc1ccc(C[C@H](N)C(=O)N[C@@H](CCC(=O)O)C(=O)N[C@@H](CS)C(=O)NCC(N)=O)cc1)

Substance | cell line | test | system | conditions | how to read | endpoint | value
O=[N+]([O-])c1ccc(-n2nc(-c3cccs3)sc2=NN=Cc2ccccc2)cc1 | Vero and A549 | cytotoxicity |  |  | baseline: CC50 Vero over IC50 A549 | selectivity index | 88.5
CN(c1ccc2ncc(-c3ccc4cn[nH]c4c3)n2n1)C1CCOCC1 | U-251 overexpressing firefly luciferase |  |  | concentration not given, 6 h |  | luminescence decrease | 26 ± 9%
salmon calcitonin | Calu-3 monolayer, air-liquid interface |  |  | 1 mg/mL apical, 3 h, pH 7.4, 37 °C, with or without HTCC |  | compound share in apical compartment | 100 ± 6.11%
CC/C(=C(\c1ccccc1)c1ccc(OCCN(C)C)cc1)c1ccccc1 | HeLa MMTV-βLa | cytotoxicity |  | 72 h |  | EC50 | 8.8 µM
O=C(NO)c1ccc(Cn2cc(Cn3cnc4ccc(Cl)cc4c3=O)nn2)cc1 | MRC5 | cell growth or viability, MTT |  | 48 h |  | IC50 | 11.9 µM
ALWGPDPAAA | HHD and preproinsulin transfected P815 | chromium release | peptide | concentration not given, peptide-specific CD8+ T-cell clones |  | cytotoxicity | toxic
Cn1c(C(=O)NCCCc2c[nH]c(N)n2)cc(Br)c1Br | HaCaT | MTT |  | overnight, 10% FBS |  | highest non-toxic concentration | 43 µM
Cc1ccc(C=NN=c2sc(-c3cccs3)nn2-c2ccc([N+](=O)[O-])cc2)cc1 | Vero and A549 | cytotoxicity |  |  | baseline: CC50 Vero over IC50 A549 | selectivity index | 95.7
COc1cccc2c1C(=O)c1c(O)c3c(c(O)c1C2=O)C[C@@](O)(C(=O)CO)C[C@@H]3O[C@H]1C[C@H](N)[C@H](O)[C@H](C)O1 | C2C12 cells | H2DCFDA flow cytometry |  | 0.5 mM, 72 h | baseline: control | ROS level | 1.09 fold
COc1cccc2c1C(=O)c1c(O)c3c(c(O)c1C2=O)C[C@@](O)(C(=O)CO)C[C@@H]3O[C@H]1C[C@H](N)[C@H](O)[C@H](C)O1 | WI-38 cells | cell viability, MTT |  | 72 h |  | maximum non-toxic concentration | 11.5 ± 0.5 nM
O=c1c2nc(Br)n([C@@H]3O[C@@H]4COP(=O)(O)O[C@H]4[C@H]3O)c2nc2[nH]c(-c3ccccc3)cn12 | washed human platelets |  |  | concentration not given, 20 min, cell membrane permeability | baseline: applied | intracellular level | 30% and ~30%
O=C(NO)c1ccc(Cn2cc(Cn3cnc4cc(Br)ccc4c3=O)nn2)cc1 | MRC5 | cell growth or viability, MTT |  | 48 h |  | IC50 | 7.18 µM
O=C(c1cc(Cc2n[nH]c(=O)c3ccccc23)ccc1F)N1CCN(C(=O)C2CC2)CC1 | MCF7 | necrosis |  | 24 h |  | EC50 | > 316 µM
O=C(c1nc2ccccc2[nH]1)[C@H]1[C@H](c2ccc(F)cc2)[C@H]2CCCN2[C@@]12c1ccccc1-c1nc3ccccc3nc12 | WI-38 lung fibroblasts | cytotoxicity, MTT | medium with 10% FBS | 72 h, dose at 100% viability |  | EC100 | 0.09 ± 0.003 µM
CC/C(=C(\c1ccccc1)c1ccc(OCCN(C)C)cc1)c1ccccc1 | MCF7 | necrosis |  | 24 h |  | EC50 | > 316 µM
CC(=NN=c1sc(-c2cccs2)nn1-c1ccc([N+](=O)[O-])cc1)c1ccccc1 | Vero and HepG2 | cytotoxicity |  |  | baseline: CC50 Vero over IC50 HepG2 | selectivity index | 116
O=C(O[C@@H]1Cc2c(O)cc(O)cc2O[C@@H]1c1cc(O)c(O)c(O)c1)c1cc(O)c(O)c(O)c1 | Caco-2 TC7 |  | PBS | concentration not given, 3 h, pH 5, 37 °C, with: EGC | baseline: dose | cellular accumulation | 1.24 ± 0.1%

Substance | cell line | test | system | conditions | how to read | endpoint | value
O=[N+]([O-])c1ccc(-n2nc(-c3cccs3)sc2=NN=C2CCCc3ccccc32)cc1 | Vero and A549 | cytotoxicity |  |  | baseline: CC50 Vero over IC50 A549 | selectivity index | 70.4
C=C(C[C@H](N)C(=O)O)C(=O)Nc1ccc(Cl)cc1 | MCF7 | necrosis |  | 24 h |  | EC50 | 204 µM
O=[N+]([O-])c1ccc(-n2nc(-c3cccs3)sc2=NN=Cc2cn(-c3ccccc3)nc2-c2ccccc2)cc1 | Vero and A549 | cytotoxicity |  |  | baseline: CC50 Vero over IC50 A549 | selectivity index | 74.6
O=C(c1nc2ccccc2[nH]1)[C@H]1[C@H](c2ccco2)[C@H]2CCCN2[C@@]12c1ccccc1-c1nc3ccccc3nc12 | WI-38 lung fibroblasts | cytotoxicity, MTT | medium with 10% FBS | 72 h, dose at 100% viability |  | EC100 | 0.234 ± 0.006 µM
C=C(C[C@H](N)C(=O)O)C(=O)NCc1ccccc1 | MCF7 | necrosis |  | 24 h |  | EC50 | > 316 µM
B1 | HeLa 705 | WST-1 |  | up to 100 µM, 24 h | baseline: untreated | viability | no effect
Cc1ccc2c(=O)n(Cc3cn(Cc4ccc(C(=O)NO)cc4)nn3)cnc2c1 | MRC5 | cell growth or viability, MTT |  | 48 h |  | IC50 | 23.6 µM
CC(=NN=c1sc(-c2cccs2)nn1-c1ccc([N+](=O)[O-])cc1)c1ccc2ccccc2c1 | Vero and HepG2 | cytotoxicity |  |  | baseline: CC50 Vero over IC50 HepG2 | selectivity index | 124
C=C(C[C@H](N)C(=O)O)C(=O)NC1CC1 | MCF7 | necrosis |  | 24 h |  | EC50 | 64.6 µM
Cc1ccc2c(=O)n(Cc3cn(Cc4ccc(/C=C/C(=O)NO)cc4)nn3)cnc2c1 | MRC5 | cell growth or viability, MTT |  | 48 h |  | IC50 | 48.1 µM
O=c1[nH]cc(F)c(=O)[nH]1 | WI-38 lung fibroblasts | cytotoxicity, MTT | medium with 10% FBS | 72 h, dose at 100% viability |  | EC100 | 2.72 ± 0.405 µM
C=C1[C@H](CO)[C@@H](O)C[C@@H]1n1cnc2c(=O)[nH]c(N)nc21 | HepG2-NTCP | viability |  |  |  | CC50 | > 25 µM
O=C(c1nc2ccccc2[nH]1)[C@H]1[C@H](c2cccs2)[C@H]2CCCN2[C@@]12c1ccccc1-c1nc3ccccc3nc12 | WI-38 lung fibroblasts | cytotoxicity, MTT | medium with 10% FBS | 72 h, dose at 100% viability |  | EC100 | 0.11 ± 0.002 µM
O=[N+]([O-])c1ccc(-n2nc(-c3cccs3)sc2=NN=C2CCCCCC2)cc1 | Vero and HepG2 | cytotoxicity |  |  | baseline: CC50 Vero over IC50 HepG2 | selectivity index | 105
CCCCCCCCCCNC(=O)C[C@@H]1NC(=O)[C@H](CCC(N)=O)NC(=O)[C@H](CCCNC(=N)N)NC(=O)[C@H](CCCNC(=N)N)NC(=O)[C@H](CCCNC(=N)N)NC(=O)[C@H](CCCNC(=N)N)NC1=O | HeLa | flow cytometry |  | cytosolic entry | baseline: 1% over 10% FBS | serum effect on uptake | ~7 fold
Oc1cc(O)c2c(c1)O[C@H](c1cc(O)c(O)c(O)c1)[C@H](O)C2 | Caco-2 TC7 |  | PBS | concentration not given, 3 h, pH 5, 37 °C | baseline: dose | cellular accumulation | 0.55 ± 0.07%

Excerpt of the above:
Substance | cell line | test | system | conditions | how to read | endpoint | value
O=C(c1nc2ccccc2[nH]1)[C@H]1[C@H](c2ccc(F)cc2)[C@H]2CCCN2[C@@]12c1ccccc1-c1nc3ccccc3nc12 | WI-38 lung fibroblasts | cytotoxicity, MTT | medium with 10% FBS | 72 h, dose at 100% viability |  | EC100 | 0.09 ± 0.003 µM
CC/C(=C(\c1ccccc1)c1ccc(OCCN(C)C)cc1)c1ccccc1 | MCF7 | necrosis |  | 24 h |  | EC50 | > 316 µM
CC(=NN=c1sc(-c2cccs2)nn1-c1ccc([N+](=O)[O-])cc1)c1ccccc1 | Vero and HepG2 | cytotoxicity |  |  | baseline: CC50 Vero over IC50 HepG2 | selectivity index | 116
